Published values of several laboratories.
Numbered parts are unrelated; each lists some results of a single study. Substitutions count along the parent as printed.

Series 1
Target: CCNB1, cyclin fold, Cln2 fusion (human)
Method: yeast growth competition, sequencing
Sample: yeast
Notes: weak parent motif
Baseline: not given
Reading: higher = stronger binding
Measurement: normalised enrichment score
Starting sequence: CDC6 docking peptide (human); TLKGRRLVFDNQL
Change = R5Y; result = -0.116
Change = R6F; result = -0.524
Change = N11H; result = 0.193
Change = R6Y; result = 0.183
Change = L13I; result = 0.103
Change = T1K; result = 0.224
Change = V8H; result = 0.715
Change = R5A L7A; result = 0.212
Change = L7M; result = 0.111
Change = R5H; result = -0.262

Series 2
Target: Interferon regulatory factor 5, full length, phosphomimetic (IRF5, Homo sapiens, UniProt Q13568-2, residues 1-514, S451D/S453D/S456D/S462D)
Method: protein-binding microarray
Molecule type: double-stranded DNA, one strand shown
Sample: in vitro
Tested at: 940 nM top
Notes: 60-bp whole probe
Added: salmon DNA 0.4 mg/ml
Baseline: random background probes
Reading: higher = stronger binding
Measurement: fitted relative affinity
Shared flanks, not repeated: GCCTAGCAC … GTCTTGATTCGCTTGACGCTGCTG
Sequence = TCAAGTGTCAATAATGACACTGTGCTA; result = -0.342 z-score
Sequence = TTAGGTATCGACTATCGGTTAGTGCTA; result = 5.41 z-score
Sequence = ATTACTTTAGGTTCCCAGGTGTGCTAG; result = 0.277 z-score
Sequence = TCAAGAATGTCCTTTCTCACTGTGCTA; result = 0.543 z-score
Sequence = AAACGGATGATCTCTCTGGGCGTGCTA; result = -0.209 z-score
Sequence = GACGGTTTCGACTTTCGCGACGTGCTA; result = 7.44 z-score
Sequence = TTAGATATCAGTATCGATTGGTGCTAG; result = 4.39 z-score
Sequence = GACGGACTGCTTTTCCTGATGTGCTAG; result = -0.216 z-score
Sequence = GTAGATTTCAGTCTCGATTAGTGCTAG; result = 3.86 z-score
Sequence = CATATTCTCTTCTTGCATCTGTGCTAG; result = 1.88 z-score
Sequence = GACGGACTGGGTATCTGGACGTGCTAG; result = -0.0562 z-score
Sequence = GATGATTCCAGTTTCGAGACGTGCTAG; result = 4.24 z-score
Sequence = TTAGGTTTCGGTTCCGGGTAGTGCTAG; result = 14.3 z-score
Sequence = CACAGTCTGAGATCCAGAAGGTGCTAG; result = -0.408 z-score

Series 3
Target: ABI1, truncated, D143A, DHFR fusion (Arabidopsis thaliana, UniProt P49597)
Method: DHFR PCA, dose-response
Sample: yeast
Notes: Hill fit, not affinity, not high confidence
Added: (+)-ABA, dose series
Reading: lower = more sensitive
Measurement: ABA EC50
Starting sequence: PYL1, truncated, DHFR fusion (Arabidopsis thaliana, UniProt Q8VZS8); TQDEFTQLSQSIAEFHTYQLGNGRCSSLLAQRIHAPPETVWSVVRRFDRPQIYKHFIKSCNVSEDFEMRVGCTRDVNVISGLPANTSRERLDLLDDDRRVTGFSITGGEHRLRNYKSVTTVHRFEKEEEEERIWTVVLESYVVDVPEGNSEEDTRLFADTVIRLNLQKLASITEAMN
Change = P50R; result = 36.3 µM
Change = V137R; result = 3.14 µM
Change = D48M; result = 361 µM
Change = N165W; result = 741 µM
Change = D48F; result = 558 µM
Change = R45P; result = 2.61 µM
Change = G81L; result = 792 µM
Change = F47M; result = 1140 µM
Change = L169F; result = 217 µM

Further values, each from its own experiment
Molecule = PhoQ, residues 284 288 289 292 302 303 TTSMTC; target = PhoP, residues 12 14 15 18 19 GQAIL (Escherichia coli, UniProt P23836); test = Sort-seq, measured: YFP reporter; test system = E. coli; conditions = PhoQ-PhoP variant library, added: 10 µM Mg2+; scale = baseline: high Mg2+ state, higher = stronger signaling; measurement = fold induction; result = 20.3

Some of these lines once more (series 1):
Change = L13I; result = 0.103
Change = T1K; result = 0.224
